Assay results gathered from unrelated publications.
Each line is one published result; not all experiments were run side by side. Numbers after ± are the reported error.
T1: RNA aptamer; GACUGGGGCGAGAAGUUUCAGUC

SMILES	target	assay	system	conditions	how to read	quantity	value
COc1ccc(NC(=O)CCCc2ccccc2)c(C)n1	CES1 (Homo sapiens, UniProt P23141)	enzyme activity, substrate	–	–	baseline: CES1 over human CES2	specific activity ratio	38.8
NC[C@@H]1O[C@H](O[C@H]2[C@@H](O)[C@H](O[C@@H]3[C@@H](O)[C@H](N)C[C@H](N)[C@H]3O[C@H]3O[C@H](CN)[C@@H](O)[C@H](O)[C@H]3N)O[C@@H]2CO)[C@H](N)[C@@H](O)[C@@H]1O	T1, RNA aptamer	UV melting	–	1 µM RNA, 10 µM molecule, pH 6.8, NaCl 100 mM	–	melting temperature change	15.6 °C
COc1cc(C(=O)NC2CCC(N3CCN(CC4CCC5(CCCC5)C4)CC3)CC2)c(F)cc1Nc1ncc2c(n1)N(C1CCCC1(F)F)CC(F)(F)C(=O)N2C (stereo not drawn)	ZAP70 (Homo sapiens, UniProt P43403)	cell-free assay, TR-FRET	–	10 µM	–	inhibition	6.09%
CC[C@H](C)[C@H](NC(=O)[C@H](CCC(=O)O)NC(=O)[C@H](CO)NC(=O)[C@@H](NC(=O)[C@@H](N)CO)C(C)C)C(=O)N[C@@H](CCC(N)=O)C(=O)N[C@@H](CC(C)C)C(=O)N[C@@H](CCSC)C(=O)N[C@@H](Cc1c[nH]cn1)C(=O)N[C@@H](CC(N)=O)C(=O)N[C@@H](CC(C)C)C(=O)NCC(=O)N[C@@H](CCCCN)C(=O)N[C@@H](Cc1c[nH]cn1)C(=O)N[C@@H](CC(C)C)C(=O)N[C@@H](CC(N)=O)C(=O)N[C@@H](CO)C(=O)N[C@@H](CCSC)C(=O)N[C@@H](CCC(=O)O)C(=O)N[C@@H](CCCNC(=N)N)C(=O)N[C@H](C(=O)N[C@@H](CCC(=O)O)C(=O)N[C@@H](Cc1c[nH]c2ccccc12)C(=O)N[C@@H](CC(C)C)C(=O)N[C@@H](CCCNC(=N)N)C(=O)N[C@@H](CCCCN)C(=O)N[C@@H](CCCCN)C(=O)N[C@@H](CC(C)C)C(=O)N[C@@H](CCC(N)=O)C(=O)N[C@@H](CC(=O)O)C(=O)N[C@H](C(=O)N[C@@H](Cc1c[nH]cn1)C(=O)N[C@@H](CC(N)=O)C(=O)N[C@@H](Cc1ccccc1)C(=O)N[C@@H](CCCCNC(=O)c1ccc2c(c1)C1(OC2=O)c2ccc(N(C)C)cc2Oc2cc(N(C)C)ccc21)C(N)=O)C(C)C)C(C)C	PTH1R (Homo sapiens, UniProt Q03431)	binding, NanoBRET	–	pH 7.5, HEPES buffer	–	kon	480000 ± 50000 M⁻¹ s⁻¹
CC[C@H](C)[C@H](NC(=O)[C@@H](NC(=O)[C@H](Cc1c[nH]c2ccccc12)NC(=O)[C@H](CCC(=O)O)NC(=O)[C@H](CO)NC(=S)Nc1ccc2c(c1)C(=O)OC21c2ccc(O)cc2Oc2cc(O)ccc21)C(C)C)C(=O)N[C@H](C(=O)N[C@@H](C)C(=O)N1CCC[C@H]1C(=O)N[C@@H](Cc1ccccc1)C(=O)N[C@@H](CC(C)C)C(=O)N[C@H](C(=O)N[C@@H](CC(N)=O)C(=O)N[C@@H](CC(C)C)C(=O)O)[C@@H](C)O)C(C)C	Rgg transcriptional regulator (Streptococcus pneumoniae, UniProt A0A0E7KI02)	binding, fluorescence polarization	–	–	baseline: wild-type peptide	fold decrease in affinity	~4 fold
CC(=N)NCc1cccc(CN)c1	Nos1 (Rattus norvegicus, UniProt P29476)	NMDA-evoked cGMP accumulation	immature rat hippocampal slices	–	–	Hill slope	0.7 ± 0.4
NC(=O)C1CCNC(=O)C(Cc2ccc([N+](=O)[O-])cc2)NC(=O)C(Cc2ccco2)NC(=O)C(CC2CC2)NC(=O)C=CC(=O)N1 (stereo not drawn)	PIM1 (Homo sapiens, UniProt P11309)	DNA-templated library selection	–	one selection round	–	enrichment factor	1.3
CC(C)CCC[C@@H](C)[C@H]1CC[C@H]2[C@@H]3CC=C4C[C@@H](OS(=O)(=O)O)CC[C@]4(C)[C@H]3CC[C@]12C	Prothrombin (F2, Homo sapiens, UniProt P00734)	intrinsic fluorescence	–	800 µM, decrease	–	maximal fluorescence change	29.6 ± 1.8%
CC(=O)NCCN(CC(=O)NCCN(CC(=O)NCCN(CC(=O)NCCC(N)=O)C(=O)[C@@H](N)CCCNC(=N)N)C(=O)[C@@H](N)CCCNC(=N)N)C(=O)[C@@H](N)Cc1ccccc1	HIV-1 TAR RNA	–	–	concentration not given	–	heat capacity change ΔCp	-2.61 ± 0.28 kJ/mol/K
O=C(Nc1cccc(Cl)c1)c1c[nH]cn1	MAPK14 (Homo sapiens, UniProt Q16539)	enzyme activity	–	–	–	ligand efficiency	0.2
CC(=O)NCCN(CC(=O)NCCN(CC(=O)NCCN(CC(=O)NCCC(N)=O)C(=O)C[C@@H](N)Cc1ccccc1)C(=O)C[C@@H](N)CCCNC(=N)N)C(=O)C[C@@H](N)CCCNC(=N)N	HIV-1 TAR RNA	–	–	extrapolated to 1 M KCl	–	non-electrostatic ΔG°	-7.17 ± 0.12 kcal/mol
CCCCCCCC/C=C\CCCCCCCC(=O)O[C@@H]1C=CCO[C@H]1COP(=O)(O)S (stereo partly drawn)	Lysophosphatidic acid receptor 6 (Homo sapiens, UniProt P43657)	agonist, TGFα shedding	–	–	–	Emax	13%

Excerpt of the above:
SMILES	target	assay	system	conditions	how to read	quantity	value
O=C(Nc1cccc(Cl)c1)c1c[nH]cn1	MAPK14 (Homo sapiens, UniProt Q16539)	enzyme activity	–	–	–	ligand efficiency	0.2
